Published values collected from several papers.
Each numbered part is a random draw from the data of one study; scales do not carry over between parts. Substitutions count along the parent as printed.

Set 1 — method: RNA Bind-n-Seq; form: RNA; sample: in vitro; concentration: 20 nM; setting: 6-mer, flanks averaged, single round; with: 150 mM LiCl; reference: input library; reading: higher = stronger binding
Target: TAR DNA-binding protein 43, full length, His tag (TARDBP, Homo sapiens, UniProt Q13148, residues 1-414)
`AGACUG` — result for “6-mer enrichment (R)”: 0.921.
For `GACCCU`, “6-mer enrichment (R)” read 0.969.
For `GGUGGC`, “6-mer enrichment (R)” read 1.23.
`GCUGAA` — result for “6-mer enrichment (R)”: 0.918.
Under “6-mer enrichment (R)”, `AGGUUC` is recorded as 0.872.
For `GCAAGA`, “6-mer enrichment (R)” read 0.893.
`CAUAUA`: “6-mer enrichment (R)” 0.917.
For `AAUGGA`, “6-mer enrichment (R)” read 0.991.
`CACUCC`: “6-mer enrichment (R)” 0.939.
`CACAAU` — result for “6-mer enrichment (R)”: 0.907.
`UGGGAC`: “6-mer enrichment (R)” 1.08.
`CCAGAU` — result for “6-mer enrichment (R)”: 0.845.
Under “6-mer enrichment (R)”, `CAGAAU` is recorded as 0.852.

Set 2 — method: DHFR PCA, deep sequencing; sample: yeast; with: (+)-ABA 2500 µM; reference: wild-type fitted maximum; reading: higher = stronger binding
Target: ABI1, truncated, D143A, DHFR fusion (Arabidopsis thaliana)
Setting: methotrexate growth selection, single substitutions
Starting sequence: PYL1, truncated, DHFR fusion (Arabidopsis thaliana); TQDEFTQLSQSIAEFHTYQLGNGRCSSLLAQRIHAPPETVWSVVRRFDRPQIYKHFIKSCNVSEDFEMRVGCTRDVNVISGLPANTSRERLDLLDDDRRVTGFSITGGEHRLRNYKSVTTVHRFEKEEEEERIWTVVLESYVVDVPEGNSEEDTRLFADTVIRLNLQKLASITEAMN; partner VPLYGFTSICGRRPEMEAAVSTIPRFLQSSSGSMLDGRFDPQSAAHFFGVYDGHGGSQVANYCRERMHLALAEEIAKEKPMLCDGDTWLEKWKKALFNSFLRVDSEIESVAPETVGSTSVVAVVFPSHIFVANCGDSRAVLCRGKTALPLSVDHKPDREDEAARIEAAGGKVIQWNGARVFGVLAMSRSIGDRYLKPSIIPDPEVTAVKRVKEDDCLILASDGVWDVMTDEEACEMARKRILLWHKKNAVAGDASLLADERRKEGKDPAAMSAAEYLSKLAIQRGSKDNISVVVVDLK
`T6L`: “relative binding score” 107%.
`L28R` — result for “relative binding score”: 100%.
`T1W` — result for “relative binding score”: 93.3%.
`R45Y`: “relative binding score” 56.3%.
`H122V` — result for “relative binding score”: 78.5%.
`F103G` — result for “relative binding score”: 0.814%.
`C25H`: “relative binding score” 81.7%.
`P83R` — result for “relative binding score”: 20.5%.
Under “relative binding score”, `F15A` is recorded as 77.7%.
`D48Y` — result for “relative binding score”: 69.4%.
For `E128M`, “relative binding score” read 103%.
`R49C`: “relative binding score” 93.3%.

Set 3 — method: RNA Bind-n-Seq; form: RNA; sample: in vitro; concentration: 365 nM; reference: no-protein control; reading: higher = stronger binding
Target: RNA binding protein fox-1 homolog 2, RRM domain, GST-SBP tag (RBFOX2, Homo sapiens, UniProt O43251-10, residues 100-194)
Setting: natural RNA segment, single round, ends assumed
All sequences stand within: GGGAGUUCUACAGUCCGACGAUC … UGGAAUUCUCGGGUGCCAA
Target sequence (chain): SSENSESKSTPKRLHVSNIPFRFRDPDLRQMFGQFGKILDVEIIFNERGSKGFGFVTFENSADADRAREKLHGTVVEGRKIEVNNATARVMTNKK
Under “RBNS enrichment (R)”, `CCCACCCCACGACCUUGGCCCGAGCCCCUCCGUGAGGAACACAAUCUCAAUCGUUGCUGAAUCCUUUCAUAUCCUAAUAGGAAUUAACCUCCAAAUAAAACAUGACUGGU` is recorded as 0.285.
For `CUUCCCUCCUGUAAUUAUUUUCUAUUUUUGUAAACUUGUUGCAUUUUUAUAUGAUUUUCUUGACUGCACGUUGGCCAGAAGGACUGCUGGCCUGGCCUCCUUUCCGUCCG`, “RBNS enrichment (R)” read 4.83.
`AACCCUGCCUGACCUCCUUUGCAGUCAUCAUCUGUCUUUUCUUGGCGUGGGUGCUCACCUCACUUAUCCUCGGGGUUUGGGACCUGGCAUCAGGACCUCUCCACCCAGGA`: “RBNS enrichment (R)” 0.587.
For `CCACAAGGCUUCCUGAAAUCAAAUGUUAGGUGUUGAGAGUAGCUGCAGUCUCGGGAUAACUUGUGAGUUCCCUGGGUCCUGGAGGGUGCAGGGUUUGUGGAACAGUAGUA`, “RBNS enrichment (R)” read 1.27.
`GAUUCCACUCAGAACCUCUCUGGAAUUUGUGCCUGAUGUGCCUUCCACUGGAUUUUGGGGUUCCCAGCACCCCAUGUGGAUUUUGGGGGGUCCCUUUUGUGUCUCCCCCG`: “RBNS enrichment (R)” 0.326.
`UAAAUUUUGUUGAAUAAAUUAAGCUCAACUAUUUGUAUUUCAAUAGUUGAGUUGUAUUGCUUCCUGUUCUUCAAGCUUAAUUUGAACUGUCUAAUAAAAAGAAGUAAUUA`: “RBNS enrichment (R)” 0.738.
`CAUGCCUGCCACCUAACCACCUACCUGCCUUAGGCCAUAGCCUGGCCUGUGCCCCUAAACACUACAUUAGACAGUGACACCCAAAGGUUUUCUUAGGAGGGUGUCUGGCA` — result for “RBNS enrichment (R)”: 0.415.
`UUUAGCCAUUUCUCAUUUUUUUCCUCAAAUUUUACCUACUGAGGCUCAAGCCUUCACAGUGAGCUGAUGGUCUCUACAGGGAGGGGAGUCUAGGGAAUUUAUUUGGUAUU` — result for “RBNS enrichment (R)”: 0.409.
For `GCACAUGUAGAAACCUGUAGACUUUGGUUACUGCUAUAUUCCCCUUGAGAUCCUUGCUGGAUGCCGACCAGGAUUUCAUGUGAGGGCCAGGGAUGCACAGACCUGGUCAA`, “RBNS enrichment (R)” read 1.45.
For `GCAGGAUCAGUCUAACUAUACUAUUAGGUGCAUGUAUUCUCUUUUCACUAACUUAUACUUGUCUAUCUAGAAUACAGGUCUUCCAGUCAGCUGGUCAUUUACCAGGUGUG`, “RBNS enrichment (R)” read 0.308.
Under “RBNS enrichment (R)”, `AAGCAAAUCCCAUUUCUUGAAAAGCCUUGGAGAACUCGGUUUGGUAGACUUGGACAUCUCUCUGGCUUCUGAAGAGCCUGAAGCUGGCCUGGACCAUUCCUGUCCCUUUG` is recorded as 0.251.
`AACAUUUUUUUUCAUUCCAGACUAACCAGAACCUGCAUUUAGAAUAGGAGUCCUUUCUCCGACCUUUUCUUCAGUUCCACAGCGAAGCCUCUGUGCUCCUUUUAUACUUG` — result for “RBNS enrichment (R)”: 0.606.

Set 4 — method: RNA Bind-n-Seq; form: RNA; sample: in vitro; concentration: 1 µM; setting: whole 134-nt RNA, ends assumed; with: 150 mM KCl; reference: input library; reading: higher = stronger binding
Target: Ras GTPase-activating protein-binding protein 1, RRM domain (G3BP1, Homo sapiens, UniProt Q13283)
Sequence of UniProt Q13283 (whole entry, looked up): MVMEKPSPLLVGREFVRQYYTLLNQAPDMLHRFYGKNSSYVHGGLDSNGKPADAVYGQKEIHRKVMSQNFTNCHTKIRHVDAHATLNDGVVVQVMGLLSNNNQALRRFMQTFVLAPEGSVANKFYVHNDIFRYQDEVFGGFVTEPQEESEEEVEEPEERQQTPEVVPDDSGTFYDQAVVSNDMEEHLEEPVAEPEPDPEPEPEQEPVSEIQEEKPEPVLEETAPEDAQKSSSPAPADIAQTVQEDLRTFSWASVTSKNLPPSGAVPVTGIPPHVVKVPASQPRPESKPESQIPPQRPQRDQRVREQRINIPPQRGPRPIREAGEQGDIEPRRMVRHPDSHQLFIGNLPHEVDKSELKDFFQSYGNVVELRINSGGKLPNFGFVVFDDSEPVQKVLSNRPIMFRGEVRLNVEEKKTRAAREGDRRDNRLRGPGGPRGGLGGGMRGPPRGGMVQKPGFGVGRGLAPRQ
All sequences stand within: GGGAGUUCUACAGUCCGACGAUC … UGGAAUUCUCGGGUGUCAAGG
For `GGCACAGGUGCCCGACCAUACACUGGGAAAGUUGGUGCUGAGGAUGCCGAUGGGAUUGACAUGGCCUACCGGGUGCUGGCUGACCACGCU`, the log2 enrichment was -0.371.
For `UCCUGUGCUACACAUCGUAUGUACCGAAUCGGGGCCCCCGGGGCCCCCGGCCCCCGGGGAAAGUAUUAUGUUACGCCGUUCGGAUCUGCA`, the log2 enrichment was -0.831.
With `CAUGUUGAAAGACAUGCUUUUAUUUUUUUGUAAAACAAUAUAGGAGCUGUGUCUACUAUUAAAAGUGAAACAUUUUGGCAUGUUUGUUAA` the log2 enrichment was -0.569.
The log2 enrichment of `UGGCCCUGGUGGCAUGCGGGGAGGAAGAGGUGGCCUCAUGGAUCGUGGUGGUCCCGGUGGAAUGUUCAGAGGUGGCCUUGGUGGAGACAG` is reported as 1.5.
`GGCGGAGCAGCUGAUGGAGGAGUGGAACGAAGACCUAGACGGCAUGGAGGGUUUCGUGCUGGAGGGCAAGAAGUUUGCGCGGCUGCCGGA` gave a log2 enrichment of -0.326.
With `ACUGGACCAGAUUGUUGAAAAAGGAAGACCAGCUCCUGGCUUCCAUCAUGGCGAUGGACCGGGAAAUGCAGUUCAAGAAAUCAUGAUUCC` the log2 enrichment was -0.106.
`CUCAAGUCCUGUGCUACACAUCGUAUGUACCGAAUCGGGCCGGGGCCGGGCCGGAAAGUAUUAUGUUACGCCGUUCGGAUCUGCACUUCC` has a log2 enrichment of -1.14.
For `CAAGUCCUGUGCUACACAUCGUAUGUACCGAAUCGGGAGGGAAAGGGUUUUUGGGAAAGUAUUAUGUUACGCCGUUCGGAUCUGCACUUC`, the log2 enrichment was 0.766.

Set 5 — target: CCNB2, cyclin fold, Cln2 fusion (human); method: yeast growth competition, sequencing; sample: yeast; setting: weak parent motif; reference: not given; reading: higher = stronger binding
Starting sequence: SCAPER docking peptide (human); SNARRSLNFGGST; partner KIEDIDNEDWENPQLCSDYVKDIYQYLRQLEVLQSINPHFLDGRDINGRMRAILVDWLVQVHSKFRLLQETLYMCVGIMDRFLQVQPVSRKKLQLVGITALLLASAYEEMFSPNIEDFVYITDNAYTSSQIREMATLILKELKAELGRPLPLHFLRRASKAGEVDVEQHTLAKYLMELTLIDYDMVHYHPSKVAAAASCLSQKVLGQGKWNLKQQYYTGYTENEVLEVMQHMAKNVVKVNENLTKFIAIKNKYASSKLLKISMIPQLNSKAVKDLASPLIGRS
Under “normalised enrichment score”, `SNARRSLNRGGST [F9R]` is recorded as 0.466.
For `SKARRSLNFGGST [N2K]`, “normalised enrichment score” read 0.262.
For `SNARRSLNFGGPT [S12P]`, “normalised enrichment score” read 0.515.
For `SNARRSPNFGGST [L7P]`, “normalised enrichment score” read -0.101.
For `SCARRSLNFGGST [N2C]`, “normalised enrichment score” read -0.264.
For `SNARFSLNFGGST [R5F]`, “normalised enrichment score” read 0.46.
Under “normalised enrichment score”, `SNARRVLNFGGST [S6V]` is recorded as 0.0746.
For `SNGRRSLNFGGST [A3G]`, “normalised enrichment score” read 0.199.
Under “normalised enrichment score”, `SNARRFLNFGGST [S6F]` is recorded as 0.527.
`SNARRSLNIGGST [F9I]`: “normalised enrichment score” 0.248.
Under “normalised enrichment score”, `SNARRSLYFGGST [N8Y]` is recorded as -0.334.
For `SNARRSLNFGGSW [T13W]`, “normalised enrichment score” read -0.124.
For `SNARRSGNFGGST [L7G]`, “normalised enrichment score” read 0.0415.
Under “normalised enrichment score”, `SNARRSLPFGGST [N8P]` is recorded as 0.306.
`SNANRSLNFGGST [R4N]` — result for “normalised enrichment score”: 0.184.
Under “normalised enrichment score”, `SQARRSLNFGGST [N2Q]` is recorded as 0.222.
`SNARRSLNFGCST [G11C]` — result for “normalised enrichment score”: 0.167.

Set 6 — method: protein binding microarray; form: double-stranded DNA, one strand shown; sample: in vitro; concentration: not given; reference: not given; reading: higher = stronger binding
Target: Histone acetyltransferase KAT6A, winged helix 1, GST fusion (KAT6A, Homo sapiens, UniProt Q92794, residues 1-85)
Setting: 8-mer, flanks averaged, mean of 2 arrays, mostly near background
Target sequence (chain): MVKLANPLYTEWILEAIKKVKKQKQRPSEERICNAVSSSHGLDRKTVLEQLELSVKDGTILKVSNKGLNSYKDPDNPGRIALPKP
`CCTCGTTA` gave an E-score of -0.287.
For `GACTCTCC`, the E-score was -0.105.
With `GTGTTTCA` the E-score was -0.0702.
The E-score of `ACGGCGGA` is reported as 0.359.
`CAGACTCC` gave an E-score of -0.107.
`CCAACATC` gave an E-score of -0.011.
`CCGTTCAC` gave an E-score of 0.0943.
`ATTCACCA` gave an E-score of -0.193.
`ATAAGGTA` gave an E-score of -0.106.
`ATCCTACA` has an E-score of -0.306.
With `ATTTCAGC` the E-score was -0.185.
With `CGTCAACG` the E-score was 0.086.
The E-score of `AAAGCTTA` is reported as -0.194.
The E-score of `GGGGACGA` is reported as 0.114.
`CTACAAAC` has an E-score of -0.0558.
`ACGCCTAA` has an E-score of -0.041.
For `ACTTTGCA`, the E-score was -0.342.
